Published values of several laboratories.
Protocols differ between the studies behind these lines. Values joined by “and” are separate records of one study, mostly repeats; a detail may differ. ± marks the error that the study gave. Converted amounts (≈) assume the structure as drawn.

CN(C)c1nc(NCc2c(F)cccc2C(F)(F)F)c(/N=N/c2ccc(Cl)cc2)c(N(C)C)n1  mortality (Ostrinia furnacalis; leaf dipping; 500 mg/L, 96 h): 100%
FC(F)(F)c1cccc(CNc2nc(NC3CCN(Cc4ccccc4)CC3)c3nc[nH]c3n2)c1  fold change (Cryptococcus neoformans; mRNA level, RNA-seq, refers to: MIPS CNAG_01539; 48 µg/mL, 3 h; baseline: untreated): 3.81
[O-][N+]1=C(c2ccccc2)C2=NCCCN2c2ncccc21  MIC90 (Clostridioides difficile; microbial growth): 0.5 µg/mL
CC(C)C[C@@H]1NC(=O)[C@H](C(C)C)NC(=O)[C@]2(C)CCCN2C(=O)[C@H](C(C)C)NC(=O)[C@H](Cc2ccccc2)NC(=O)CSCCNC(=O)[C@H](Cc2ccccc2)N(C)C(=O)[C@H](CC(C)C)NC(=O)[C@H](CCC2CCCCC2)NC1=O  EC50/IC50 ratio (HIV-1; viral replication; MT4; baseline: cell EC50 over protease IC50): 41.5
CN(C)c1nc(NCc2ccc(F)c(C(F)(F)F)c2)c(/N=N/c2ccc(Cl)cc2)c(N(C)C)n1  mortality (Ostrinia furnacalis; leaf dipping; 200 mg/L, 96 h): 93.3 ± 5.8%
COc1ccccc1-c1n[nH]c2nc(NC3CCN(C(=O)Cc4ccc(F)cc4F)CC3)ncc12  relative abundance (bead binding, competition bead pull-down, refers to: LMJF.30.2550; Leishmania donovani extract; 10 µM; baseline: vehicle): 0.86
COc1ccc(Cn2c3cc(=O)n(Cc4cccc(Cl)n4)c(C)c3c(=O)n2-c2ccccn2)cc1  normalized viral replication (human respiratory syncytial virus; recombinant reporter virus; concentration not given, scale 0 to 100, added: cytidine 100 µM): 0
CC(C)[C@H]1NC(=O)[C@H](Cc2ccccc2)NC(=O)[C@@H](C(C)C)NC(=O)[C@@H](C)NC(=O)[C@H](CO)NC(=O)[C@@H](Cc2c(-c3ccc(-c4ccccc4)c4ccccc34)[nH]c3ccccc23)NC(=O)[C@@H](CO)NC1=O  MIC90 (Mycobacterium marinum): > 100 µM
O=S(=O)(c1ccc(-c2ccc3ncnc(Nc4ccc(OCc5ccccc5F)c(Cl)c4)c3c2)cc1)N1CCOCC1  inhibition (Trypanosoma cruzi; intracellular amastigote growth, β-galactosidase CPRG; 3T3, Tulahuen, β-galactosidase-expressing; 10 µM, 96 h): 10%
O=CCNCCOn1c(=O)n(OCCNCCO)c(=O)n(OCCNCCOn2c(=O)n(OCCNCCO)c(=O)n(OCCNCCO)c2=O)c1=O  MLC (Proteus mirabilis; broth microdilution): 8 ± 2 µg/mL (≈ 10.4 µM)
CC[C@H](C)[C@H](NC(=O)[C@H](CCCCN)NC(=O)[C@H](CCCCN)NC(=O)[C@H](Cc1ccccc1)NC(=O)[C@H](Cc1ccccc1)NC(=O)[C@H](CCCCN)NC(=O)[C@H](CCCCN)NC(=O)[C@H](Cc1ccccc1)NC(=O)[C@H](CCCNC(=N)N)NC(=O)[C@@H](N)CCCCN)C(=O)N[C@@H](CCCCN)C(=O)N[C@@H](CCCCN)C(=O)N[C@@H](CO)C(=O)N[C@H](C(=O)N[C@@H](CCCCN)C(=O)N[C@@H](CCCCN)C(=O)N[C@@H](CCCNC(=N)N)C(=O)N[C@H](C(=O)N[C@@H](CCCCN)C(=O)N[C@@H](CCCCN)C(=O)N[C@@H](CC(C)C)C(=O)N[C@@H](Cc1ccccc1)C(=O)N[C@@H](CCCCN)C(=O)N[C@@H](CCCCN)C(=O)N1CCC[C@H]1C(=O)N[C@@H](CCCNC(=N)N)C(=O)N[C@H](C(=O)N[C@H](C(=O)N1CCC[C@H]1C(=O)N[C@H](C(=O)N[C@@H](CO)C(=O)N[C@H](C(=O)N1CCC[C@H]1C(=O)N[C@@H](Cc1ccccc1)C(=O)O)[C@@H](C)CC)[C@@H](C)CC)[C@@H](C)CC)C(C)C)C(C)C)C(C)C  MIC (Escherichia coli; E24; 20 h, added: 150 mM NaCl): 4 µg/mL (≈ 0.948 µM)
CC(C)C[C@H](NC(=O)[C@H](CCN)NC(=O)[C@H](CCN)NC(=O)[C@@H](Cc1ccccc1)NC(=O)[C@H](CC(C)C)NC(=O)[C@H](CCN)NC(=O)[C@H](CCN)NC(=O)[C@@H](CCN)NC(=O)CCSCCOC(=O)C(C)(C)C)C(N)=O  MBC (Acinetobacter calcoaceticus; BHI agar spot plating; 24 h, 37 °C): 128 µM (≈ 142 µg/mL)
O=C(O)C(Cl)Cl.OCCN(CCO)CCO  inhibition (Solanum nigrum; herbicidal activity; 15 mg/mL, 21 days, pre-emergence greenhouse): 0%
COc1ccc(C2=[N+]([O-])c3ccccc3N3CC(C)(C)CN=C23)cc1  MIC50 (Clostridioides difficile; microbial growth): 2 µg/mL (≈ 5.96 µM)
CC[C@H](C)[C@H](NC(=O)[C@H](C)NC(=O)CNC(=O)[C@H](C)NC(=O)[C@H](CCCCN)NC(=O)[C@H](CO)NC(=O)[C@H](C)NC(=O)[C@H](CCSC)NC(=O)CN)C(=O)N[C@@H](C)C(=O)NCC(=O)N[C@@H](CCCCN)C(=O)N[C@H](C(=O)N[C@@H](C)C(=O)N[C@@H](CCCCN)C(=O)N[C@H](C(=O)N[C@@H](C)C(=O)N[C@@H](CC(C)C)C(=O)N[C@@H](CCCCN)C(=O)N[C@@H](C)C(=O)N[C@@H](CC(C)C)C(N)=O)C(C)C)[C@@H](C)CC  combination index (Escherichia coli; CFT073 nalidixic acid-resistant; added: nalidixic acid): 0.85
CC(=O)CCC1C(=O)NC(C(C)C)C(=O)NC(Cc2cc(O)cc(F)c2)C(=O)N2CCCC(N2)C(=O)OC(C(C)=CC=CC(=O)N2CCCCO2)CC=CC=CC(O)C(C)C1O (stereo not drawn)  EC50 (Hepatitis C virus; viral replication; Huh7, Con1 replicon; 40% human serum): 13 ± 2 nM
CCCCCCCC(=O)NCCCC[C@H](NC(=O)CCCCCCC)C(=O)N[C@@H](CCCCNC(=O)CCCCCCC)C(=O)NCC(=O)NCC(=O)NCC(=O)N[C@@H](CS)C(=O)N[C@@H](CCCNC(=N)N)C(=O)N[C@@H](CCCCN)C(=O)N1CCC[C@H]1C(=O)N[C@@H](CS)C(=O)N[C@@H](CCCNC(=N)N)C(=O)N[C@@H](CCCCN)C(=O)N1CCC[C@H]1C(=O)N[C@@H](CS)C(=O)N[C@@H](CCCNC(=N)N)C(=O)N[C@@H](CCCCN)C(=O)N1CCC[C@H]1C(=O)N[C@@H](CS)C(=O)N[C@@H](CCCNC(=N)N)C(=O)N[C@@H](CCCCN)C(=O)N1CCC[C@H]1C(N)=O  geometric mean MIC (Candida; twelve fungal strains): 19 µM
CC(C)C[C@H](NC(=O)[C@@H](N)CO)C(=O)N[C@@H](Cc1c[nH]c2ccccc12)C(=O)N[C@@H](CCC(=O)O)C(=O)N[C@@H](CC(N)=O)C(=O)N[C@@H](Cc1ccccc1)C(=O)N[C@@H](CCCCN)C(=O)N[C@@H](CC(N)=O)C(=O)N[C@@H](C)C(=O)NCC(=O)N[C@@H](CCCCN)C(N)=O  geometric mean MIC (Gram-positive bacteria): 256 µM
C[N+]1=C2C(c3ccccc3)=[N+]([O-])c3ccccc3N2CCC1  MIC50 (Clostridioides difficile; microbial growth): 16 µg/mL
Fc1cccc(COc2ccc(Nc3ncnc4ccc(-c5cccc(N6CCCCC6)c5)cc34)cc2Cl)c1  inhibition (Trypanosoma cruzi; intracellular amastigote growth, β-galactosidase CPRG; 3T3, Tulahuen, β-galactosidase-expressing; 10 µM, 96 h): 24%
CC(C)[C@H]1NC(=O)CNC(=O)[C@H](CO)NC(=O)[C@@H](Cc2c(-c3ccc(-c4ccc5ccccc5c4)cc3)[nH]c3ccccc23)NC(=O)[C@@H](CO)NC(=O)[C@@H](C(C)C)NC(=O)[C@H](Cc2ccc(O)cc2)NC1=O  MIC90 (Mycobacterium marinum): 100 µM
CCOC(=O)C1(Cc2ccccc2)Oc2cc(F)ccc2N(Cc2ccccc2)C1=O (stereo not drawn)  fresh weight inhibition (Setaria viridis; greenhouse; postemergence, 150 g ai/ha, 21 days): 42.8 ± 2.11%
CC[C@H](C)CCCCC(=O)N[C@@H](CCN)C(=O)N[C@H](C(=O)N[C@@H](CCN)C(=O)N[C@H]1CCNC(=O)[C@H]([C@@H](C)O)NC(=O)[C@H](CCN)NC(=O)[C@H](CCN)NC(=O)[C@H](CC(C)C)NC(=O)[C@@H](CC(C)C)NC(=O)[C@H](CCN)NC1=O)[C@@H](C)O  MIC fold change (Escherichia coli; daily serial passaging; ATCC 8739; highest sub-MIC, 20 days; baseline: initial MIC): 1.26
CCc1nn(C)c2nc(-c3ccc(C(=O)O)cc3)nc(NCc3ccccc3)c12  parasite number (Cryptosporidium parvum; HCT-8; EC90, 48 h; baseline: DMSO control): 57% and 68.9% and 44.8% and 55.4%
CC[C@H](C)[C@@H]1NC(=O)[C@H](CO)NC(=O)[C@H](CCCCN)NC(=O)[C@@H]2CSSC[C@@H](C(=O)N[C@@H](Cc3ccc(O)cc3)C(N)=O)NC(=O)[C@H](CCCCN)NC(=O)[C@@H]3CSSC[C@H](NC(=O)[C@H](CCCNC(=N)N)NC(=O)[C@H](CC(C)C)NC(=O)[C@H](CC(=O)O)NC(=O)[C@H](CC(=O)O)NC(=O)[C@H](CCC(=O)O)NC(=O)[C@H](CC(N)=O)NC(=O)[C@H](Cc4c[nH]c5ccccc45)NC(=O)[C@@H]4CCCN4C(=O)CNC(=O)[C@H](CC(N)=O)NC(=O)[C@@H](NC(=O)CNC(=O)[C@H](Cc4ccccc4)NC(=O)CN)CSSC[C@H](NC(=O)[C@H](Cc4ccc(O)cc4)NC(=O)CNC(=O)CNC(=O)[C@H](CCCCN)NC(=O)[C@H](Cc4ccc(O)cc4)NC(=O)CNC(=O)[C@H](CCCCN)NC1=O)C(=O)N[C@@H](C)C(=O)N[C@@H](CCCCN)C(=O)NCC(=O)NCC(=O)N[C@@H](Cc1ccccc1)C(=O)N[C@@H](C(C)C)C(=O)N3)C(=O)N[C@@H](Cc1c[nH]cn1)C(=O)N[C@@H](CC(N)=O)C(=O)N[C@@H](Cc1c[nH]cn1)C(=O)N2  MBC (Streptococcus pneumoniae; BS-444; 24 h, 37 °C, 99.9% killing): 0.5 µM (≈ 2.21 µg/mL)
Cc1cc(C(=O)Nc2nc3cccc(C)c3n2[C@H]2CCCCN(C(=O)/C=C/CN(C)C)C2)ccn1  cells in G1 phase (Trypanosoma brucei; propidium iodide flow cytometry; bloodstream form; concentration not given, 72 h): 37.1%
CCOC(=O)C1(Cc2cc(F)c(F)c(F)c2)Oc2cc(F)ccc2N(Cc2cc(F)c(F)c(F)c2)C1=O (stereo not drawn)  inhibition (Setaria viridis; fresh weight, greenhouse postemergence; postemergence, 150 g ai/ha, 21 days): 39.2 ± 2.46%
CC(C)[C@H]1NC(=O)[C@H](Cc2ccc(O)cc2)NC(=O)[C@@H](C(C)C)NC(=O)[C@@H](C)NC(=O)[C@H](CO)NC(=O)[C@@H](Cc2c(-c3ccc(-c4ccc(-c5ccccc5)cc4)cc3)[nH]c3ccccc23)NC(=O)[C@@H](CO)NC1=O  MIC90 (Mycobacterium marinum): 39.2 µM
CN(C)c1nc(NCc2ccc3ccccc3c2)c(/N=N/c2ccc(Cl)cc2)c(N(C)C)n1  mortality (Ostrinia furnacalis; leaf dipping; 500 mg/L, 96 h): 100%
CC1COC2=C1C(=O)C(=O)c1c2ccc2c1C(OC(=O)CNC(=O)C(N)CO)CCC2(C)C (mixture of isomers)  inhibition zone diameter (Cutibacterium acnes; 10 µmol/mL, 48 h, anaerobic, 10 µL on 6 mm disc): 16.8 ± 0.8 mm

Excerpt of the above:
CCOC(=O)C1(Cc2cc(F)c(F)c(F)c2)Oc2cc(F)ccc2N(Cc2cc(F)c(F)c(F)c2)C1=O (stereo not drawn)  inhibition (Setaria viridis; fresh weight, greenhouse postemergence; postemergence, 150 g ai/ha, 21 days): 39.2 ± 2.46%
COc1ccc(C2=[N+]([O-])c3ccccc3N3CC(C)(C)CN=C23)cc1  MIC50 (Clostridioides difficile; microbial growth): 2 µg/mL (≈ 5.96 µM)
